Assay results of several laboratories.
Numbered parts are unrelated; each lists some results of a single study. Changes are numbered by the printed parent chain.

Sample 1 — target: CCNB1, cyclin fold, Cln2 fusion (human); method: yeast growth competition, sequencing; medium: yeast; notes: weak parent motif; reference: not given; direction: higher = stronger binding
Starting sequence: USP37 docking peptide (human); PSAKRSLGFLPQP
For `Q12A`, “normalised enrichment score” read 0.544.
Under “normalised enrichment score”, `P13A` is recorded as -0.0645.
`L10A` — result for “normalised enrichment score”: 0.0733.
`P11A`: “normalised enrichment score” -0.155.
`F9A`: “normalised enrichment score” -0.238.
For `S2A`, “normalised enrichment score” read 0.295.

Sample 2 — method: RNA Bind-n-Seq; molecule type: RNA; medium: in vitro; concentration: not given; reference: input RNA pool; direction: higher = stronger binding
Target: RING finger protein unkempt homolog, zinc fingers 1-6, GST-SBP tag (UNK, Homo sapiens, UniProt Q9C0B0, residues 30-357)
Notes: RNA with constant flanks, human and mouse sites, ends assumed
Construct (chain): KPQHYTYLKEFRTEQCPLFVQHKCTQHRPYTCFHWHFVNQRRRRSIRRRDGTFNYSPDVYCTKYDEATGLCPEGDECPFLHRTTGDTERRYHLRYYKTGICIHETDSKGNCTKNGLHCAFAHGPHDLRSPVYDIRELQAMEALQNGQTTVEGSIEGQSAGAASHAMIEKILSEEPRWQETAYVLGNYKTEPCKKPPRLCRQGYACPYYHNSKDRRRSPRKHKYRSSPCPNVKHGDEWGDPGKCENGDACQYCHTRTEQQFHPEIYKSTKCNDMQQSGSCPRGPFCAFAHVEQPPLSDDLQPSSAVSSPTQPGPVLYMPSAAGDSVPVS
The bound/input enrichment of `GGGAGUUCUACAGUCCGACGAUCGAAAGUGAUGAAGAGGUCUCUUCUCCGGCCCCAAGUGUCCCCGGGCCAUCUUCACCCUUUGGUUUGGGCAGUGACACUGAUGAAGAACAAGGUCAGCAACCAGGAGUAGAGGAGUCCUCUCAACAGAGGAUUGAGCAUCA` is reported as 0.246 ratio.
For `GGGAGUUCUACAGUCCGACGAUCGCCAAGGCCAUUCAGCUGAACAGUAAUAGUGUUCAAGCUCUGCUACUUAAGGGAGCAGCACUUAGGAACAUGGGCAGAGUCCAAGAAGCAAUAAUCCACUUUCGGGAGGCCAUACGGCUCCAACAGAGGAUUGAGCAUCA`, the bound/input enrichment was 0.154 ratio.
`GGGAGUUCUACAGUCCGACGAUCAUGCAAACUUCAAAUCUGGAUGUGAAUAAUAAUAUUUUUAUUAUAGUAUAAUCCAGGUGAGUUUAUAGAAUUUGUGUUUUGUGCUUAUAAACUGUCACCUUCUGAUACUUUUCUUCAUCCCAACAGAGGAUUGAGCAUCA` gave a bound/input enrichment of 0.547 ratio.
`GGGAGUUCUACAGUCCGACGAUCCGGUGUGUUGUCUGUUGUUAAUUCCAUUCCCUCCGUGUGUUUCCUUAAAAGCUUCUGUCUAUUAGUGGCUUCCUGUGCUCUGGGCACUUAACUCCUAAUCUUUCAAACACCGGGAUGCAACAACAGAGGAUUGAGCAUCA` has a bound/input enrichment of 0.497 ratio.
`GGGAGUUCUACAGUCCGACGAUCAACAAACUUAUAGUGACGCGUUGGAAGGCUAACCGAAGCCAUCCUUACCCCUAUUUAAUGUAGCUUGGCUUGCUUUCCCUUUUAUCUGAUGUUACCAUUGCGAUCUAGCUUUCUUUUCAUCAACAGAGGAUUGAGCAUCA` has a bound/input enrichment of 0.562 ratio.
With `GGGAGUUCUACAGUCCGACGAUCAGUAUUGCUCAGUCACUAAAAGAAUUUGCAAGACUACUCAUUGCAGUAGAAGAAGAAAGGCGAAGACUGAUCCAAAACGCUAACGAUGUAUUAAUUGCACCACUUGAGAAAUUUCGAAAACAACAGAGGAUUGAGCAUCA` the bound/input enrichment was 0.176 ratio.
For `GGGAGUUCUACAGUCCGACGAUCGAAACAUCUCCAGAAUCAUCUCUAAUUCAAGAUGAGAUUGCCGUCAAAUUGUCAGUGGAAAUACCUUGCCCACCUGCUGUUUCAGAGGCUGAUUUAGCCACAGAUGAGAGAGCUGAUGUCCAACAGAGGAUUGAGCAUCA`, the bound/input enrichment was 0.0634 ratio.
`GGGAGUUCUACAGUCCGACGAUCAAAUUUAAGUUUUCUUGUAUUGAAAAUAACCUAUGAUUGUAUGUUUUGCAUUCCUAGAAGUAGGUUAACUGUGUUUUUAAAUUGUUAUAACUUCACACCUUUUUGAAAUCUGCCCUACAACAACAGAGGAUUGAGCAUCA` has a bound/input enrichment of 0.705 ratio.

Sample 3 — method: RNA Bind-n-Seq; molecule type: RNA; medium: in vitro; concentration: 200 nM; notes: whole 134-nt RNA, ends assumed; added: 150 mM LiCl; reference: input library; direction: higher = stronger binding; all molecules: 7-deaza-guanosine replaces G
Target: Ras GTPase-activating protein-binding protein 1, full length (G3BP1, Homo sapiens, UniProt Q13283)
Sequence of UniProt Q13283 (whole entry, looked up): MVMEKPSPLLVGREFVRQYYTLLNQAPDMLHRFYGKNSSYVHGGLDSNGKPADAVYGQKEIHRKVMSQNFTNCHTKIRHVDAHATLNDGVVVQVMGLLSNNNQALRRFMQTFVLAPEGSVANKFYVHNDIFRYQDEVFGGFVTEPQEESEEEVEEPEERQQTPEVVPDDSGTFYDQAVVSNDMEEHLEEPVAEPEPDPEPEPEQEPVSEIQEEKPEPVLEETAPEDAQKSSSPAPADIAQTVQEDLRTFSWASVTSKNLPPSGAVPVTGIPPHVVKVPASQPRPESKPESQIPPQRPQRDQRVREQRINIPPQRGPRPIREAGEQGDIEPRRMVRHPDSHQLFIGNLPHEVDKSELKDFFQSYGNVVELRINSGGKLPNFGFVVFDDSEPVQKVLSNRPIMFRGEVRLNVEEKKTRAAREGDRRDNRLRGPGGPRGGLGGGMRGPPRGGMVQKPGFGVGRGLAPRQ
`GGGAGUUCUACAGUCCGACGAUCCAAGUCCUGUGCUACACAUCGUAUGUACCGAAUCGGGAAAGGAAAGGGGAAAGGGGAAAGUAUUAUGUUACGCCGUUCGGAUCUGCACUUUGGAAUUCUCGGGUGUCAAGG` gave a log2 enrichment of -0.165.
`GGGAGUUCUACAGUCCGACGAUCCCUCAAGUCCUGUGCUACACAUCGUAUGUACCGAAUCGGUUGGUUGGGUUGGAAAGUAUUAUGUUACGCCGUUCGGAUCUGCACUUCCAGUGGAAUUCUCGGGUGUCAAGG` has a log2 enrichment of 0.73.
For `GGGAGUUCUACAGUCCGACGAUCAGGUCAUGGAUCAAAAAGAACAUAAAUUGAAUGGGAAGGUGAUUGAUCCUAAAAGGGCCAAAGCCAUGAAAACAAAAGAGCCGGUUAAAAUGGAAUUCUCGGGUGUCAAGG`, the log2 enrichment was -1.24.
With `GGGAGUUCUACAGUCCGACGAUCCUCAAGUCCUGUGCUACACAUCGUAUGUACCGAAUCGGUGGAAAAAGGUUUGGAAAGUAUUAUGUUACGCCGUUCGGAUCUGCACUUCCAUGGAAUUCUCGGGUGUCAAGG` the log2 enrichment was -0.106.
With `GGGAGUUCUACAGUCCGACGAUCUAACUUUAGAGGAGGAUCUGAUGGAUAUGGCAGUGGACGUGCAUUUGGGGAUGGCUAUAAUGGGUAUGGAGGAGGACCUGGAGGUGGCAAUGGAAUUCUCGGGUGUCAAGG` the log2 enrichment was -1.01.
`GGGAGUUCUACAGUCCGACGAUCGCAGGAAGUAAAAACAGAUGGAAAUGCUUCGGAUAGUGGCAGGGGUGGGGGUUGCUAAGGAAAGGGUGGGAUGGGAGUGGGUAAAGAGUUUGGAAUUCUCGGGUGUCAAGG` gave a log2 enrichment of -0.353.
`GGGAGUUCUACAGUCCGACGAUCGUCCUGUGCUACACAUCGUAUGUACCGAAUCGGGAAAAAGGAAAAAGGGAAAAAGGGGAAAGUAUUAUGUUACGCCGUUCGGAUCUGCACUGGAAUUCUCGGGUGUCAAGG` has a log2 enrichment of -0.0598.
For `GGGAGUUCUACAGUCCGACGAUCUUUGAGGUCAAACGCCGCGGGGAACUGCAGCUGAUUAAGAUCUUCCAAUCCUCGGUGUUUGAGGCCUUCCUCAAGGGCAGCACGCUGGAAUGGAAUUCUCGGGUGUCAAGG`, the log2 enrichment was -1.69.

Sample 4 — method: competition protein-binding microarray; molecule type: double-stranded DNA, one strand shown; medium: in vitro; concentration: 2 µM; added: Cbf1 competitor, 0.05 µM; direction: higher = stronger binding
Target: Phosphate system positive regulatory protein PHO4, full length, GST-tagged (PHO4, Saccharomyces cerevisiae, UniProt P07270, residues 1-312)
Notes: whole 60-bp probe, lowest competitor level
Residues (chain): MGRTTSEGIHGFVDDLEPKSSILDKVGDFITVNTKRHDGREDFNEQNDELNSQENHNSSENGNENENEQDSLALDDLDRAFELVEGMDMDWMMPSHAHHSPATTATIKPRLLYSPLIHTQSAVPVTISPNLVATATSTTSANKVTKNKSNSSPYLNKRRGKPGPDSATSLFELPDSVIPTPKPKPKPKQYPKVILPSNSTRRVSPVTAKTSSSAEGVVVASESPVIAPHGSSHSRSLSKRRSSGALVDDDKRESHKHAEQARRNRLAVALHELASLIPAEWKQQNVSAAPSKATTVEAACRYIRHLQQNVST
With `ACACCCGTACACCACCATGTGCGTTATTGAAAAACTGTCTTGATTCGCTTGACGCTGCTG` the fluorescence intensity was 13700 a.u.
For `TGCGCAACAACTTGGCCTGTGGGTGTATGTCTAGAAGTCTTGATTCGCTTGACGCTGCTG`, the fluorescence intensity was 4670 a.u.
For `CGTCCTAGTGATTGTAACGTGGGTGCCATGAGGAAGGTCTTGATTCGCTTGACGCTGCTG`, the fluorescence intensity was 11200 a.u.
`GAGGAGACACACCGTCACGTGTTTTGCCATTTTGTAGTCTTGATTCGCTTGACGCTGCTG` has a fluorescence intensity of 15400 a.u.
`AAAGCGGTAATTTGGATAGTGGGTGCAGATATCTATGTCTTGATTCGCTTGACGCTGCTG` has a fluorescence intensity of 4450 a.u.
With `CTTCTGTAAATTTGACTGGTGGGTGGACGCGCCCCGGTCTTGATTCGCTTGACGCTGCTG` the fluorescence intensity was 4310 a.u.
`TGCGCAACAACTTTTCACGTGACATTATGTCTAGAAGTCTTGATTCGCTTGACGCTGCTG` gave a fluorescence intensity of 11800 a.u.
With `GATTGGGATCCTTGTCATGATGATGCCATAGCCATTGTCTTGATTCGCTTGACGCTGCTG` the fluorescence intensity was 3660 a.u.
`GTCAACCGATTGGATCAGGTGAGGAAGTACTCAGCGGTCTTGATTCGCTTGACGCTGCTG` has a fluorescence intensity of 2950 a.u.
With `CTCGATCTACCGTTCCACGTGACTCGTCCAAGGATTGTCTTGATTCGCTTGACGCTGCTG` the fluorescence intensity was 14100 a.u.
For `GTATAAATGTAGTTAAAAGTTTTTGTTTTGATAATTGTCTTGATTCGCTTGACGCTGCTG`, the fluorescence intensity was 4180 a.u.
With `GAGAACGCAGAGGACAACGTGGCCGTTGGGTTGATAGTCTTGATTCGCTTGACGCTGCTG` the fluorescence intensity was 14200 a.u.
For `TGTACTCGGTCAACACACGTGCACAGAGCACCTACTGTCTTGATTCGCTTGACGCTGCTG`, the fluorescence intensity was 17500 a.u.
With `ATACAGCCCACTGCACACATGGTGATAAAGAGAATTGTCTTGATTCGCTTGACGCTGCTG` the fluorescence intensity was 9390 a.u.
`TAGTGTTAAAGCAACACCGTGATGGCCTTGGTGGTGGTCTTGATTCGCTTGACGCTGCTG` has a fluorescence intensity of 5900 a.u.
The fluorescence intensity of `TCCTTAATGCCCAAGCACATGGGTCAGGGTTCATTAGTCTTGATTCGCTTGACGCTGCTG` is reported as 11600 a.u.
With `AGGGCAGCGCGCGACCGCGTGTCCTTTCACAGCGCAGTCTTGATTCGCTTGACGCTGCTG` the fluorescence intensity was 9440 a.u.

Single results of other studies
The fold induction of `PhoQ, residues 284 288 289 292 302 303 SSLVEF` is reported as 8.18 (PhoP, residues 12 14 15 18 19 MHTVL (Escherichia coli, UniProt P23836); Sort-seq, measured: YFP reporter; E. coli; PhoQ-PhoP variant library, added: 10 µM Mg2+; reference: high Mg2+ state, higher = stronger signaling).

Some of these lines once more (sample 4):
With `ATACAGCCCACTGCACACATGGTGATAAAGAGAATTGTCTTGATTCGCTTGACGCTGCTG` the fluorescence intensity was 9390 a.u.
With `CTCGATCTACCGTTCCACGTGACTCGTCCAAGGATTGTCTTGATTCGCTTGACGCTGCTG` the fluorescence intensity was 14100 a.u.
For `TGTACTCGGTCAACACACGTGCACAGAGCACCTACTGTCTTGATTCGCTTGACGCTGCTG`, the fluorescence intensity was 17500 a.u.
The fluorescence intensity of `TCCTTAATGCCCAAGCACATGGGTCAGGGTTCATTAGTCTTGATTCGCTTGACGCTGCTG` is reported as 11600 a.u.
